Measured values gathered from unrelated publications.
Each numbered part is a random draw from the data of one study; scales do not carry over between parts. “And” joins repeats or separate records; there may be more than shown.

Study 1
Target: TATA-box-binding protein 1 (TBP1, Arabidopsis thaliana, UniProt P28147, residues 1-200, full length assumed)
Method: protein-binding microarray
Molecule type: double-stranded DNA, one strand shown
Sample: in vitro
Tested at: not given
Setting: k-mer, scored over probes, only values ≥0.25
Direction: higher = stronger binding
Construct (chain): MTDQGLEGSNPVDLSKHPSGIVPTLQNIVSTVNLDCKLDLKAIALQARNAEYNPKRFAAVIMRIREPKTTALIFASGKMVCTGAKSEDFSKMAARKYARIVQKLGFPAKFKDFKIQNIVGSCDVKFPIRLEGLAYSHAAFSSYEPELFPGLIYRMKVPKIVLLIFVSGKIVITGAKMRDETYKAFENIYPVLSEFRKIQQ
For `CATATTA`, the E-score was 0.377.
The E-score of `AATAATA` is reported as 0.371.
`ATAATTA` gave an E-score of 0.373.
`ATAAGTG` gave an E-score of 0.292.

Study 2
Target: Prothrombin, mature alpha-thrombin (F2, Homo sapiens, UniProt P00734)
Method: aptamer microarray, sandwich
Molecule type: DNA with 2'F-ANA
Sample: in vitro
Tested at: 200 nM
Setting: whole 15-mer aptamer, many near background
Added: Cy3 exosite-II aptamer, 400 nM
Direction: higher = stronger binding
Oligonucleotide: GGTTGGTGTGGTTGG
`2'F-ANA at 4 5 6 7 9 11 14 15`: “mean fluorescence intensity” 44.8 a.u.
`2'F-ANA at 1 2 3 7 11`: “mean fluorescence intensity” 219 a.u.
`2'F-ANA at 2 3 12`: “mean fluorescence intensity” 1080 a.u.
`2'F-ANA at 2 4 5 6 7 9 10 14 15`: “mean fluorescence intensity” 47.3 a.u.
Under “mean fluorescence intensity”, `2'F-ANA at 1 5 6 7 8 10 14 15` is recorded as 46.9 a.u.

Study 3
Target: RNA binding protein fox-1 homolog 2, RRM domain, GST-SBP tag (RBFOX2, Homo sapiens, UniProt O43251-10, residues 100-194)
Method: RNA Bind-n-Seq
Molecule type: RNA
Sample: in vitro
Tested at: 365 nM
Setting: natural RNA segment, single round, ends assumed
Baseline: no-protein control
Direction: higher = stronger binding
Shared flanks, not repeated: GGGAGUUCUACAGUCCGACGAUC … UGGAAUUCUCGGGUGCCAA
Construct (chain): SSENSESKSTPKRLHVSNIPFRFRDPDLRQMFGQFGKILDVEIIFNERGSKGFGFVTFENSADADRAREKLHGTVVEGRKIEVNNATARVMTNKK
For `UUUAAAACUGUAUUAAAUAUGCACAUUUUUGGUAUAGCUAUUAUCAUUUGUAUGUAUAUAUUGUAUAUACAUAUGAGUGUCUGUAUGUGUGUAUAGAUGGAUGGAUGUAA`, “RBNS enrichment (R)” read 0.393.
For `GGCCAUGCUCUGUUCCCAGCAGCCGCGCAGGUUUCCCCACUGGCUGCAAUGGCCCUACCAAAAGCCAUGUUGCAUAUCCGUUGUAAGCACGUGCCCUGUGCCCUGUCCCC`, “RBNS enrichment (R)” read 0.461.
Under “RBNS enrichment (R)”, `UAAGCCAGAGUCUUGUCUAUCAGAUUCCCACAACCACUCCUGAUUCUAAAUUUAGUGAUAUGGUAAUGAAAUUGGUAUUUAUUUUAAAUAUUAGUUAUUCUAAGGAGAAA` is recorded as 0.368.
Under “RBNS enrichment (R)”, `CUAGACUUUUCUUUUUAAGGAAGUGCUGUUUUUUUUUGAGGGUUUUCAAAACAUUUUGAAAAGCAUUUACUUUUUUGACCACGAGCCAUGAGUUUUCAAAAAAAUCGGGG` is recorded as 0.444.
`CACUGCCCCUCUCCCUCAAGCCUAAGACACUAAGACCCCAGACCCAAAGCCAAGUCCACCAGAGUGGCUGCAGGCCAGGCCUGGAGUCCCCGUGGGUCAAGCAUUUGUCU`: “RBNS enrichment (R)” 0.248.

Mixed results
`PhoQ, residues 284 288 289 292 302 303 TNSAEL` gave a fold induction of 17.3 and 13.4 (PhoP, residues 12 14 15 18 19 LWHCS (Escherichia coli, UniProt P23836); Sort-seq, item: YFP reporter; E. coli; PhoQ-PhoP variant library, added: 10 µM Mg2+; baseline: high Mg2+ state, higher = stronger signaling).

Repeated from above (study 2):
`2'F-ANA at 4 5 6 7 9 11 14 15`: “mean fluorescence intensity” 44.8 a.u.
